Measurements of several laboratories.
A part holds a random share of what one study measured.

Study 1 — technique: universal PBM; molecule type: double-stranded DNA, one strand shown; medium: in vitro; concentration: not given; direction: higher = stronger binding
Target: Sal-like protein 4, full length isoform B (SALL4, Homo sapiens, UniProt Q9UJQ4-2, residues 1-616)
Notes: 8-mer, flanks averaged, mean of replicates
Strand | E-score
GCCACTAC | -0.19
AGACGCCT | -0.185
CTCGGAAA | -0.0402
GCGCCGGA | -0.386
AACGTGCC | -0.197
GCGATTCA | -0.215
AGACTCCT | -0.119
CTCGATTA | 0.107
AGACTCTA | 0.0305
CAAGGCGC | -0.145
CAGGCATG | -0.0778
ACAGTCTC | -0.0687
GAATGATC | 0.139

Study 2 — technique: aptamer microarray, sandwich; molecule type: DNA with 2'F-ANA; medium: in vitro; concentration: 200 nM; with: Cy3 exosite-II aptamer, 400 nM; direction: higher = stronger binding; strand: GGTTGGTGTGGTTGG
Target: Prothrombin, mature alpha-thrombin (F2, Homo sapiens, UniProt P00734)
Notes: whole 15-mer aptamer, many near background
Modification | mean fluorescence intensity [a.u.]
2'F-ANA at 1 3 4 6 8 9 10 12 13 14 15 | 52.2
2'F-ANA at 2 3 4 6 8 10 12 14 15 | 148
2'F-ANA at 1 2 3 4 5 6 7 8 9 10 11 13 15 | 53.8
2'F-ANA at 1 3 5 8 9 10 11 13 14 15 | 46.8
2'F-ANA at 4 6 9 11 12 15 | 353
2'F-ANA at 4 5 9 12 | 169
2'F-ANA at 3 6 10 11 14 15 | 367
2'F-ANA at 1 2 7 8 14 | 67.3
2'F-ANA at 1 2 3 4 6 7 8 9 11 13 15 | 109
2'F-ANA at 1 2 5 9 10 11 12 | 52.5
2'F-ANA at 7 8 9 12 13 14 15 | 262
2'F-ANA at 2 3 7 9 14 15 | 395
2'F-ANA at 1 3 4 7 9 11 14 | 63

Study 3 — technique: protein-binding microarray; molecule type: double-stranded DNA, one strand shown; medium: in vitro; concentration: 250 nM; notes: 60-bp whole probe; with: salmon DNA 0.4 mg/ml; relative to: random background probes; direction: higher = stronger binding; constant ends, left off below: GCCTAGCAC … GTCTTGATTCGCTTGACGCTGCTG
Target: Interferon regulatory factor 5, full length, phosphomimetic (IRF5, Homo sapiens, UniProt Q13568-2, residues 1-514, K96S/S451D/S453D/S456D/S462D)
Strand | log fluorescence
TCAGTTTTGTGTCTGGGACTGTGCTAG | 0.391 z-score
TGAGGACTGGGGACTGGGTTAGTGCTA | -0.6 z-score
TTAGGTTTCGGGTCCGGTTAGTGCTAG | 8.03 z-score
TTAGGTCTAGGACTGGGTTAGTGCTAG | -0.176 z-score
TTAGGTCTTCTTCTCCTTTAGTGCTAG | 0.271 z-score
GACGGTCTCCTACTGCTGTCGTGCTAG | -0.234 z-score
GACGGTATCGGTTTTGGGACGTGCTAG | 5.46 z-score
TCATGTCTTCCCCTCTCACTGTGCTAG | 0.0815 z-score
TCAGTTACCCATCTCAAACTGTGCTAG | 0.156 z-score
TCACTTCTGCCTGTCCAACTGTGCTAG | 0.431 z-score
GACGGTTTCCTTACCCTGACGTGCTAG | 0.478 z-score
TCAGGTTTTCTAATGTTACTGTGCTAG | 0.491 z-score
TCACTTCTCTTTTTGCTACTGTGCTAG | 1.65 z-score
GACGGACTGCTTATCCTGCCGTGCTAG | -0.407 z-score

Other studies, line by line
Molecule | target | assay | system | conditions | scale | measurement | value
PhoQ, residues 284 288 289 292 302 303 SVHLDV | PhoP, residues 12 14 15 18 19 LHATL (Escherichia coli, UniProt P23836) | Sort-seq, refers to: YFP reporter | E. coli | PhoQ-PhoP variant library, with: 10 µM Mg2+ | relative to: high Mg2+ state, higher = stronger signaling | fold induction | 0.957

Repeated from above (study 1):
Strand | E-score
CAAGGCGC | -0.145
GAATGATC | 0.139
AGACTCCT | -0.119
AGACGCCT | -0.185
AGACTCTA | 0.0305
